Published values of several laboratories.
Numbered parts are unrelated; each lists some results of a single study.

Set 1 — method: protein-binding microarray; form: double-stranded DNA, one strand shown; matrix: in vitro; concentration: 940 nM top; notes: 60-bp whole probe; together with: salmon DNA 0.4 mg/ml; relative to: random background probes; direction: higher = stronger binding; shared flanks, not repeated: GCCTAGCAC … GTCTTGATTCGCTTGACGCTGCTG
Target: Interferon regulatory factor 5, full length, phosphomimetic (IRF5, Homo sapiens, UniProt Q13568-2, residues 1-514, S451D/S453D/S456D/S462D)
Oligonucleotide | fitted relative affinity [z-score]
TTAGCTATCGGGTTTCGATTAGTGCTA | 4.69
TCAATTCTCTGCTTGGGACTGTGCTAG | 0.886
TTAGATATCGGTATCGGTTAGTGCTAG | 5.44
TTAGATTTCAGACTGGAGTAGTGCTAG | -0.315
TCACATTCTGAATTCGAACTGTGCTAG | 0.247
TTTGCTTTCCTTCTTGAACTGTGCTAG | 1.18
TTAGGCATCCTTATCCTTTAGTGCTAG | -0.269
TTAGGTATCGACACTGGGTTGGTGCTA | 4.99
TCATTTTTTTTTTTGTAACTGTGCTAG | 1.5
TTAGGTATCGGTTTCGGATAGTGCTAG | 10.9
TTAGGTATGGGTCTCGGTTAGTGCTAG | 1.71
TTAAATTTTAATAACACAGAGTGCTAG | -0.23
TTAGGAATCGGGTTTCGGTTAGTGCTA | 6.42
GACGAACTCAGTTTCGAGACGTGCTAG | 3.94
AAGGTTATCCATCTCAAGTAGTGCTAG | 0.305
TCACGTCTGGGTGTTTTACTGTGCTAG | 0.319
GACGGACTGAGTCTCGGGACGTGCTAG | 0.806
GCCGATTTCGGGTTTCGAGACGTGCTA | 2.28
CAGCCTCTGCATTCCCTCAGGTGCTAG | 0.201
GACGATTTCAGGACTGGAGACGTGCTA | -0.17
GACGGTTTCGGACAGGGGACGTGCTAG | 6.3
AACTTTGGTATCTGGCATCTGTGCTAG | 1.38
TTAGATTTAGGGTTTCGATTAGTGCTA | 4.16
GACGGACTGGGGTTTAGGGACGTGCTA | -0.0936
TTAGGTCGCGGTATCGGTTAGTGCTAG | 4

Set 2 — method: protein binding microarray; form: double-stranded DNA, one strand shown; matrix: in vitro; concentration: not given; relative to: not given; direction: higher = stronger binding
Target: Histone acetyltransferase KAT6A, both winged helices, GST fusion (KAT6A, Homo sapiens, UniProt Q92794, residues 1-181)
Notes: 8-mer, flanks averaged, mean of 2 arrays, mostly near background
Construct (chain): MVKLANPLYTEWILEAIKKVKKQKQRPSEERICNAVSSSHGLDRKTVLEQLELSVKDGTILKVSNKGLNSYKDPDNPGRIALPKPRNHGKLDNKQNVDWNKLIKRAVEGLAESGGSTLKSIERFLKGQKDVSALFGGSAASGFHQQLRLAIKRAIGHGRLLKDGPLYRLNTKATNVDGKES
Oligonucleotide | E-score
GTCGATTA | -0.0687
AGCACGGG | 0.173
TTACGTAA | -0.21
AGAGGTTC | 0.123
GGGTTGTA | 0.0235
ATAGACCC | 0.0195
GCTCACCA | -0.106
ACGATACG | 0.0367
ATCATGCG | 0.1
CGATTGGC | -0.0744
ATCCGATA | 0.0925
CCGGACTC | 0.118
GCGGGCGA | 0.239
ATTTGGAC | -0.058
GGTAACAC | 0.032
AGTAGGGC | -0.0755
AGCTCCTA | -0.25
GGTAAAAA | 0.000605
ATATCAGG | -0.157
AACTATAC | -0.0447
CGGCATTA | 0.328
CTCAAGTC | -0.158
GCCTAAAC | -0.0531
ACCTTGTA | -0.13
CACCGCCA | -0.0736

Set 3 — method: RNA Bind-n-Seq; form: RNA; matrix: in vitro; concentration: 200 nM; notes: whole 134-nt RNA, ends assumed; together with: 150 mM KCl; relative to: input library; direction: higher = stronger binding
Target: Fragile X messenger ribonucleoprotein 1, C-terminal low-complexity region (Fmr1, Mus musculus, UniProt P35922)
Oligonucleotide | log2 enrichment
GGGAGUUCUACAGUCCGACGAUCUCCUCAAGUCCUGUGCUACACAUCGUAUGUACCGAAUCGGUGGUUUGGUGGAAAGUAUUAUGUUACGCCGUUCGGAUCUGCACUUCCAGCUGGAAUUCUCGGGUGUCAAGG | -0.388
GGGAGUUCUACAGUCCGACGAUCAAGUCCUGUGCUACACAUCGUAUGUACCGAAUCGGGGCCCGGGCCCGGGGCCCGGGAAAGUAUUAUGUUACGCCGUUCGGAUCUGCACUUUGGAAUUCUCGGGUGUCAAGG | -0.856
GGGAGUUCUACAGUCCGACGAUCACCAUGCAGGUGGGGAUCUUUGGGAAGUGGGGCAAGGGGGGGAUAGGGAGGGGGGUAACACUUUGGGAACAGGUGGUCCCAGGUCGUUUCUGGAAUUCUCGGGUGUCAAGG | 0.491
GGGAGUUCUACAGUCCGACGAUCUGGCCCUGGUGGCAUGCGGGGAGGAAGAGGUGGCCUCAUGGAUCGUGGUAGUCCCGGUGGAAUGUUCAGAGGUGGCCGUGGUGGAGACAGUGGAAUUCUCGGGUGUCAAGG | 0.179
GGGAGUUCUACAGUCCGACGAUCCUCAAGUCCUGUGCUACACAUCGUAUGUACCGAAUCGGGGUGGGGUGGGUGGGGAAAGUAUUAUGUUACGCCGUUCGGAUCUGCACUUCCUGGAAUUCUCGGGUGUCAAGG | 0.724
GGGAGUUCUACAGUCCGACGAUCUUGAGAAAAGCACCCAUAAUUUGCUACUUGAGGAUUUUAUUCCCUGGAUUCUCUGGAUGCUCAUUGCAUGAAAAGUGGAAAAGUUUAGAUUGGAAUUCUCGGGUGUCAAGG | -0.439
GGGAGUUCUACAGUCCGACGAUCUGGCCCUGGUGGCAUGCGGGGAGGAUGAGGUGGCCUCAUGGAUCGUGGUGGUCCCGGUGGAAUGUUCAGAGGUGGCCGUGGUGGAGACAGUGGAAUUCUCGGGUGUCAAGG | 1.95e-05
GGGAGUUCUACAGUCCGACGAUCGAAAAUUUCUCAGUUCUUAAGAAUGCUUGCUGUGGGUAUAGUGCAGGUAUAUUGAAAGGAAUUUUUUUCUUGCAGCGGGAAAGAGACAUGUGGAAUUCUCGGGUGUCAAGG | -1.01
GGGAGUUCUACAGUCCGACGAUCUGUGCUACACAUCGUAUGUACCGAAUCGGGGUUUUUUUGGGGAAAAAGGGGAAAAAAAGGGGAAAGUAUUAUGUUACGCCGUUCGGAUCUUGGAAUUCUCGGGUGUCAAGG | -0.0327
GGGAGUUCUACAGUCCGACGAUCCACAGACAACACGCAAAAACACAGACACAGAGGGAAGGGGUUGGGAUGGGGACAGGGUGCACAGCAGGGCGGGGUAGGACCCCAGCCCCUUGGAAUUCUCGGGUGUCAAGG | 1.2
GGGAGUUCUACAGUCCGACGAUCGCAGGAAGUAAAAGCAAAUGGAAAUGCUUCGGAUAGUGGCAGGGGUGGGGGUUGCUAAGGAAAGGGUGGGAUGGGAGUGGGUAAAGAGUUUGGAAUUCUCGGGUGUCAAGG | 0.415
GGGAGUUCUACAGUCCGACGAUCGCAGGAAGUAAAAACAAAUGGAAAUGCUUCGGAUAGUGGCAGGGGUGGGGGUUGCUAAGGAAAGGGUGGGAAAGGAGUGGGUAAAGAGUUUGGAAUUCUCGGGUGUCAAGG | 0.136
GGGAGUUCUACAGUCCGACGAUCUCCUCAAGUCCUGUGCUACACAUCGUAUGUACCGAAUCGGUGGGUGGGGUGGAAAGUAUUAUGUUACGCCGUUCGGAUCUGCACUUCCAGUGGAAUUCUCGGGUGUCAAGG | 0.444
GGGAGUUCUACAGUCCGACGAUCGUCCUGUGCUACACAUCGUAUGUACCGAAUCGGGGAAAAAAGGAAAAAAGGAAAAAAGGAAAGUAUUAUGUUACGCCGUUCGGAUCUGCAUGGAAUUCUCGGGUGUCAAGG | -0.734

Set 4 — method: RNA Bind-n-Seq; form: RNA; matrix: in vitro; concentration: 20 nM; notes: 6-mer, flanks averaged, single round; together with: 150 mM LiCl; relative to: input library; direction: higher = stronger binding
Target: TAR DNA-binding protein 43, full length, His tag (TARDBP, Homo sapiens, UniProt Q13148, residues 1-414)
Oligonucleotide | 6-mer enrichment (R)
CCUAUC | 0.897
CUGUCC | 0.924
UAGUUG | 1.1
CGCCUG | 0.9
GGUUCC | 0.928
UUUCUC | 1.02
CCCGAA | 0.935
CGAAGG | 0.896
CCUGUG | 1.06
CCCGAU | 0.942
CUAGCU | 0.854

Set 5 — method: universal PBM; form: double-stranded DNA, one strand shown; matrix: in vitro; concentration: 600 nM; direction: higher = stronger binding
Target: Sal-like protein 4, full length isoform A (SALL4, Homo sapiens, UniProt Q9UJQ4, residues 1-1053)
UniProt Q9UJQ4, sequence (whole entry, looked up): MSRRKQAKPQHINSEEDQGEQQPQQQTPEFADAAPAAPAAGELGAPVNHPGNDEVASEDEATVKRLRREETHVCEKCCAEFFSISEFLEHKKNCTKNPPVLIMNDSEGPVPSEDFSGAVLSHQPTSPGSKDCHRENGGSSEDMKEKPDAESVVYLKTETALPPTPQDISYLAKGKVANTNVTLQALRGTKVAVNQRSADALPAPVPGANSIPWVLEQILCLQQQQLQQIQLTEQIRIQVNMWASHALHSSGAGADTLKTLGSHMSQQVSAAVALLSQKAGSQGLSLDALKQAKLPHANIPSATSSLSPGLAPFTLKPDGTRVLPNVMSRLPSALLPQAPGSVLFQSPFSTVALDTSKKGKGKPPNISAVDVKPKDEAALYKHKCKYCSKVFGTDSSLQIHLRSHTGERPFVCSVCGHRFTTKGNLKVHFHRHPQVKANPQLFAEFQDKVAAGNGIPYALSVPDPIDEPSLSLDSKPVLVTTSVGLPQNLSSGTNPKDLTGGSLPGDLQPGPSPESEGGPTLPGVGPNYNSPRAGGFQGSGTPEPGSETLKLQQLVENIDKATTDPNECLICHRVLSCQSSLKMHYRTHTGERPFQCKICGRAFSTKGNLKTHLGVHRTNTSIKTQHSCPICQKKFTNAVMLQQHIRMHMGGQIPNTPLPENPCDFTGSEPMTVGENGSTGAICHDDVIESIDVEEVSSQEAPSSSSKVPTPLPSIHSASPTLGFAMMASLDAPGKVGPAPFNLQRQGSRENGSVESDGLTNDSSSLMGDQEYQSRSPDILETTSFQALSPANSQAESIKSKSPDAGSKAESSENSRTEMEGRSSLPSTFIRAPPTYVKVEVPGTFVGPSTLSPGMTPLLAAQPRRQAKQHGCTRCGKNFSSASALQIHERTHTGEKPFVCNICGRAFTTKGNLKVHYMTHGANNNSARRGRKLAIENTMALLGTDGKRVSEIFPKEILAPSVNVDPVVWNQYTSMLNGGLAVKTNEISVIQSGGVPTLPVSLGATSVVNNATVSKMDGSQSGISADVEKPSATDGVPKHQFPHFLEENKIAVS
Notes: 8-mer, flanks averaged, mean of replicates
Oligonucleotide | E-score
CTAGTCAA | 0.056
CTTTCGGA | -0.0136
AGCCATAA | 0.22
CGCCTGTA | -0.107
AATGCGCA | 0.172
CCCAGACA | -0.209
ACTTCCCG | -0.0505
GAGGTGCC | -0.34
AGCACCAC | -0.326
TCACCAGA | -0.127
AAGAAGAA | 0.134
CACACATA | 0.193
AACAACTT | 0.0818
CATTGTTA | 0.225
GATGCACA | 0.0356
GTTGGGTA | -0.0513
CGGACGAA | -0.0181
AGTCGCAA | 0.0417
ACGGGGGG | -0.337
CCCAATTA | 0.0875
CATAAACC | 0.162
GCAAGAGA | -0.0371

Set 6 — method: RNA Bind-n-Seq; form: RNA; matrix: in vitro; concentration: 100 nM; relative to: input RNA pool; direction: higher = stronger binding
Target: RING finger protein unkempt homolog, zinc fingers 1-6, SBP tag (UNK, Homo sapiens, UniProt Q9C0B0, residues 30-357)
UniProt Q9C0B0, sequence (30-357, looked up): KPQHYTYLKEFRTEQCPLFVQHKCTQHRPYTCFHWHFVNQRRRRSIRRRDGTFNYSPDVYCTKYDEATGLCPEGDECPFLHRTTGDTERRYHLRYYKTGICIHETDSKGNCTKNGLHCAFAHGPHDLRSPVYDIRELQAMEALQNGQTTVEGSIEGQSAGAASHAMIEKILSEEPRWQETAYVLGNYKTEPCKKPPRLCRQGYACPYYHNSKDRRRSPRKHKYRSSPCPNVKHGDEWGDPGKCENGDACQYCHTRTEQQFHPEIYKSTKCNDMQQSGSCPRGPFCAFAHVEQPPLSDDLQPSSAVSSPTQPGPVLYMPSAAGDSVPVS
Notes: RNA with constant flanks, vertebrate orthologous sites, ends assumed
Oligonucleotide | bound/input enrichment [ratio]
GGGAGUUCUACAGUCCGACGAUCUGUCUGCCUCGUUCUGAAAUUUACACAGUAGACCGUUUGUCAUCCAUGCUGUCCCACAAAUAGUUUUUUGUUUACGAUUUACGACAGGUUUAUGUUACUUCUAUUUGAAUUUCUAUAUUUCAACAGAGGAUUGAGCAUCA | 1.02
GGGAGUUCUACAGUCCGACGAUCAUUAUUCAUUUGAUUAAAAUUAUCUAAAAUAAGAAGUUACCGUUUAUGUCUGCUUUCAGACAGCCCUCCUGUUUUUGGUUUUUUCCUUUUGGCAGGUGUCUGUUGUGUUCUGUUAUACAUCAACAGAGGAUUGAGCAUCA | 0.356
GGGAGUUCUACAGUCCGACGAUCCAGCUGAUUCACUUAUUGGGCGAGCUGCACAUAUAGCUGUUCUUGAUUCAGAAAUAUUUUUAGAGAAAUUCUUCCUGGUUGCUGCCCUCAAAUAUUUCCAAUAGAUUAAAAACAUUGUUACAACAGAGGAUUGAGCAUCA | 1.33
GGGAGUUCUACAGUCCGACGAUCGACCUCUGGAACUCCUAACUUUCGAGCUGUGGCUGUUUUUGAUACUGAUUUUAUUUUCUUUACGACUUUCCCAUUUCCUGCCUUCUCUCCUUCUGUUCCCACGGCUUGACUUGUGGAUGGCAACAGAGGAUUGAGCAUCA | 1.18
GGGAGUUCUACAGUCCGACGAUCGAAGAUGGUGGUUGUACAUUAUUCAUCUAGAAAAUAUAAAAAUUCAUUUUGUUUUGAAGCUAGUUAUUAAACUGGAAUAGCAGUUAUAUCCCUGAGAAUGGGGCCCUUCUCUUGACAUUCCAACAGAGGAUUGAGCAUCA | 2.45
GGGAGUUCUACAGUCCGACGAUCAUCCCUCAGUGACAGUAUGCCUUCUGUAGCAGAUUCUCACUCUAGUCAUUUUUCUGAAUUUAGUUGUUCUGACCUAGAAAGCAUGAAAACUUCUUGUAGUCAUGGUUCCAGUGAUUAUCACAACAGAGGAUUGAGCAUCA | 1.46
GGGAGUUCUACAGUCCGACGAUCACAUUCAGUGUGGUGCGUGUACUCUGCCAGUGCUCAUCAUCCCUCUUCAUGCCACUGUCCUUAGUUACACGAAUUUCAUAUUUUUAAAAGUUUUACAAUGCUGUAUAUUCAAAGAUUUGUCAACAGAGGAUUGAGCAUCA | 0.698
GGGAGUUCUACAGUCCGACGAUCUUCAGGCACAACUGACUGGUUCACAGCACUCCUUACAUAGUUAUCUAUCAAAUUCAAGUGUAGCUAAUUUUCAGGAAACAACCAGGCAGUCAUCUUUAUCCUGUAGCCCAAUUGGAGAUUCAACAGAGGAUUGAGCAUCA | 1.67
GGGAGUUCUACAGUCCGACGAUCUUCUGCUGAUGCACUAUAUCUGAGGCAUACGCUAAACUAAGUGUAAUUUAGAAGAUUUUAUAGUUUAUUUUGAUGAGGUGAGAAUUAUCCAGAUUGUAGUCGGGAAUAUAUUGUCUUUUACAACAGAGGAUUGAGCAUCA | 1.27
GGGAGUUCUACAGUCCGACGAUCUGAAGAUGGUGGUUGUACAUUAUUUCAUUUAGAAAAUAUUAAUUCAUUUUGUUCUGAAGCUAGGUGUUAAACUGGAAUAGCUAUUAUACCCCAGAGAUUGGGGCAGUUGUGCCCUUCCCUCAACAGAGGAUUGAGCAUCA | 2.02
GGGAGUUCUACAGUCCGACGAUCCUCUAUGGGCCUCGCAGAAUUGAAAUAAUGGAAGAGGAAAGUGAACAGUAAUCUUCAUUUUAGUAUUUAUGCUUAGGUGUGAAAUAAAUGUUGUUUGUUGAUCAUUUCUAUAACCCAGAGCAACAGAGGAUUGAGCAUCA | 0.423
